Experimental data collected from several papers.
Every numbered part comes from another study and shows a few of its results, in no order. Substitutions count along the parent as printed.

Set 1 — method: DHFR PCA, deep sequencing; sample: yeast; together with: (+)-ABA 0.39 µM; baseline: wild-type fitted maximum; reading: higher = stronger binding; endpoint: relative binding score
Target: ABI1, truncated, D143A, DHFR fusion (Arabidopsis thaliana)
Setting: methotrexate growth selection, single substitutions
Starting sequence: PYL1, truncated, DHFR fusion (Arabidopsis thaliana); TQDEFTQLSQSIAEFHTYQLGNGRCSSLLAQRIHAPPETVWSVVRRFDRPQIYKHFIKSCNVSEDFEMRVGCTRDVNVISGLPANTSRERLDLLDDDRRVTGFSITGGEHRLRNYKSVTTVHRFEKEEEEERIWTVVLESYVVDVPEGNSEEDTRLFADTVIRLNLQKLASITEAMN
Change = E128A; value = 50%
Change = A158S; value = -11.6%
Change = S27N; value = 54.1%
Change = L112E; value = 2.09%
Change = T1D; value = 44.2%
Change = P50C; value = -11.1%
Change = D95F; value = -7.81%
Change = F5E; value = 17.3%
Change = S104D; value = -13.7%
Change = D96L; value = -7.13%
Change = R49Y; value = -7.84%
Change = E151C; value = 32.8%
Change = R99C; value = 30.9%
Change = H110A; value = 13.6%
Change = N114W; value = -17.1%

Set 2 — method: RNA Bind-n-Seq; molecule type: RNA; sample: in vitro; tested at: 200 nM; setting: whole 134-nt RNA, ends assumed; together with: 150 mM LiCl; baseline: input library; reading: higher = stronger binding; endpoint: log2 enrichment; all molecules: 7-deaza-guanosine replaces G
Target: Ras GTPase-activating protein-binding protein 1, full length (G3BP1, Homo sapiens, UniProt Q13283)
Sequence of UniProt Q13283 (whole entry, looked up): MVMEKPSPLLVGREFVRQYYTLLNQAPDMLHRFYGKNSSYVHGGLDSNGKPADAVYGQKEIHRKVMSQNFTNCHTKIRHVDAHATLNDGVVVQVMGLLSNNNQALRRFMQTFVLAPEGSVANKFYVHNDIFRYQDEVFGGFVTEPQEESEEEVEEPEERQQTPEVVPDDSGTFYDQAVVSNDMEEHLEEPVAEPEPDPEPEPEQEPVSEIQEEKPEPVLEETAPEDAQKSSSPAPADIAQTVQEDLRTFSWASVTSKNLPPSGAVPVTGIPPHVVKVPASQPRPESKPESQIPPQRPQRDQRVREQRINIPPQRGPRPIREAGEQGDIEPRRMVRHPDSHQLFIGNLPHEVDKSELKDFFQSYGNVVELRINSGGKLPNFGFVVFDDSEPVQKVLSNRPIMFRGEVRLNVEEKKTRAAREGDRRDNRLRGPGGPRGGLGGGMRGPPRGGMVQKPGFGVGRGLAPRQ
All sequences stand within: GGGAGUUCUACAGUCCGACGAUC … UGGAAUUCUCGGGUGUCAAGG
Oligonucleotide = UCCUGUGCUACACAUCGUAUGUACCGAAUCGGGGUUUUUGGGGUUUUUGGGGUUUUUGGAAAGUAUUAUGUUACGCCGUUCGGAUCUGCA; value = 1.08
Oligonucleotide = GCAGGAAGUAAAAACAAAUGGAAAUGCUUCGGAUAGUGGCAGGCGUGGGGGUUGCUAAGGAAAGGGUGGGAUGGGAGUGGGUAAAGAGUU; value = 0.018
Oligonucleotide = GUCCUGUGCUACACAUCGUAUGUACCGAAUCGGGGAAAAAGGGAAAAAGGGAAAAAGGGAAAGUAUUAUGUUACGCCGUUCGGAUCUGCA; value = -0.163
Oligonucleotide = CCUCAAGUCCUGUGCUACACAUCGUAUGUACCGAAUCGGAAAGGUUUGGAGGAAAGUAUUAUGUUACGCCGUUCGGAUCUGCACUUCCAG; value = -0.179
Oligonucleotide = CACAGACAACACGCACCCACACAGACACAGAGGGAAGGGGUUGGGAUCGGGACAGGGUGCACAGCAGGGCGGGGUAGGACCCCAGCCCCU; value = 0.173
Oligonucleotide = UCAAGUCCUGUGCUACACAUCGUAUGUACCGAAUCGGUGGAAAAAAAGGAAAGGAAAGUAUUAUGUUACGCCGUUCGGAUCUGCACUUCC; value = -1.05
Oligonucleotide = CAAGUCCUGUGCUACACAUCGUAUGUACCGAAUCGGAAAAAAAGGUUUGGUUUGGAAAGUAUUAUGUUACGCCGUUCGGAUCUGCACUUC; value = -2
Oligonucleotide = UGGGAGGUGGAUUUUGUUUAUUUUUUUAGCUCAUUUCCAGGGGUGGGAAUUUUUUCUUAAUAUGUGUCAUGAAUAAAGUUGUUUUUGAAA; value = -0.731
Oligonucleotide = UGCAUCUGCACUGGAGAAAUGGAAGACAGCAAUCCGGGAAGCUCAGACUUUCUCCAGGAUGCACGUGCUGCUUGGGAUGCUUGAUGCCUG; value = -0.994
Oligonucleotide = AAGUCCUGUGCUACACAUCGUAUGUACCGAAUCGGGGCCCGGGGCCCGGGGCCCGGGAAAGUAUUAUGUUACGCCGUUCGGAUCUGCACU; value = -0.259
Oligonucleotide = CCUGUGCUACACAUCGUAUGUACCGAAUCAAACCCCCCCAAAUUUUUUUAAAUUUUUAAAAAAGUAUUAUGUUACGCCGUUCGGAUCUGC; value = 1.48

Set 3 — target: CCNE2, cyclin fold, Cln2 fusion (human); method: yeast growth competition, sequencing; sample: yeast; setting: strong parent motif; baseline: not given; reading: higher = stronger binding; endpoint: normalised enrichment score
Starting sequence: RBL2 docking peptide (human); STTRRRLFVENDS; partner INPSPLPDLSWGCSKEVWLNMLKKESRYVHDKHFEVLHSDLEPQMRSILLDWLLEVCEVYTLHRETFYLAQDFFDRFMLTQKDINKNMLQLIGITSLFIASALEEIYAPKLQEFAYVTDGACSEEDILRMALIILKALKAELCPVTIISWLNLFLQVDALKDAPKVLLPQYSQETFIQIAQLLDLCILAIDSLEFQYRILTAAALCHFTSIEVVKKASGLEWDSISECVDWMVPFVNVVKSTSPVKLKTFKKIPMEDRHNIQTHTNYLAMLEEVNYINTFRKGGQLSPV
Change = R6I; value = 1.8
Change = N11A; value = 3.69
Change = T2A; value = 3.79
Change = T2S; value = 4.68
Change = F8N; value = 0.25
Change = T3H; value = 4.76
Change = R6N; value = -0.0546
Change = L7K; value = 0.194
Change = D12S; value = 3.94
Change = N11C; value = 4.35
Change = S13F; value = 5.22
Change = D12Y; value = 3.51
Change = F8A; value = -0.499
Change = R4Y; value = 1.34
Change = F8T; value = 0.535
Change = T3A; value = 5.62
Change = S1L; value = 4.38
Change = V9C; value = 4.67
Change = D12H; value = 3.86
Change = E10K; value = 1.82
Change = S13D; value = 4.99
Change = L7Y; value = -0.409
Change = S1I; value = 3.85
Change = F8I; value = 0.6
Change = F8C; value = -0.202

Set 4 — method: protein binding microarray; molecule type: double-stranded DNA, one strand shown; sample: in vitro; tested at: not given; baseline: not given; reading: higher = stronger binding; endpoint: E-score
Target: Histone acetyltransferase KAT6A, both winged helices, GST fusion (KAT6A, Homo sapiens, UniProt Q92794, residues 1-181)
Setting: 8-mer, flanks averaged, mean of 2 arrays, mostly near background
Residues (chain): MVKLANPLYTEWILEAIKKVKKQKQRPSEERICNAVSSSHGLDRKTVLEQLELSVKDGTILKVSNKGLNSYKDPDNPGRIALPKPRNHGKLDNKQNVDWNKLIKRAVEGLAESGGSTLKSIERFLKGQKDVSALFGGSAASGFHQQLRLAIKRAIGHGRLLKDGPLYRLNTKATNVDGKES
Oligonucleotide = GGTCTTAC; value = 0.123
Oligonucleotide = ATGCCTCG; value = 0.0369
Oligonucleotide = AGGGGAGC; value = -0.109
Oligonucleotide = AGAATGGC; value = -0.166
Oligonucleotide = AGCAGATA; value = -0.12
Oligonucleotide = GTCAGCTA; value = 0.0295
Oligonucleotide = CACTGTAG; value = 0.0138
Oligonucleotide = CTCGGCAC; value = 0.163
Oligonucleotide = CGGCCTAC; value = 0.119
Oligonucleotide = CTTTGACA; value = -0.0366
Oligonucleotide = GACTCTGA; value = -0.102
Oligonucleotide = CACATATG; value = -0.157
Oligonucleotide = GGCACACA; value = -0.056
Oligonucleotide = AATTCAAC; value = -0.00632
Oligonucleotide = AACATGAT; value = -0.0131
Oligonucleotide = ACCCTCAT; value = -0.216
Oligonucleotide = CCGGTGAG; value = 0.0781
Oligonucleotide = CGGAGGCC; value = 0.13

Set 5 — method: universal PBM; molecule type: double-stranded DNA, one strand shown; sample: in vitro; tested at: not given; reading: higher = stronger binding; endpoint: E-score
Target: Sal-like protein 4, full length isoform B (SALL4, Homo sapiens, UniProt Q9UJQ4-2, residues 1-616)
Setting: 8-mer, flanks averaged, mean of replicates
Oligonucleotide = ATGAATCG; value = 0.128
Oligonucleotide = CCACACTC; value = -0.0597
Oligonucleotide = ACGAAAAA; value = 0.272
Oligonucleotide = TAGAAATA; value = 0.343
Oligonucleotide = AATGAACG; value = 0.178
Oligonucleotide = ATCAACGA; value = -0.0417
Oligonucleotide = ATCTCTTA; value = 0.0852
Oligonucleotide = GCTGAATA; value = 0.208
Oligonucleotide = AATTAAAT; value = 0.324
Oligonucleotide = GAATTGTA; value = 0.115
Oligonucleotide = ATAGGGCA; value = 0.0712
Oligonucleotide = AGTGTTGA; value = 0.0383
Oligonucleotide = CTAAGCAG; value = -0.235
Oligonucleotide = GTTTGGAA; value = 0.088
Oligonucleotide = AGCATCGC; value = -0.177
Oligonucleotide = ATCGGGTA; value = -0.0803
Oligonucleotide = AAAGAAAT; value = 0.298
Oligonucleotide = ACCGGACA; value = -0.263
Oligonucleotide = GGTACTTA; value = 0.0804

Set 6 — method: RNA Bind-n-Seq; molecule type: RNA; sample: in vitro; tested at: not given; baseline: input RNA pool; reading: higher = stronger binding; endpoint: bound/input enrichment
Target: RING finger protein unkempt homolog, zinc fingers 1-6, GST-SBP tag (UNK, Homo sapiens, UniProt Q9C0B0, residues 30-357)
Sequence of UniProt Q9C0B0 (30-357, looked up): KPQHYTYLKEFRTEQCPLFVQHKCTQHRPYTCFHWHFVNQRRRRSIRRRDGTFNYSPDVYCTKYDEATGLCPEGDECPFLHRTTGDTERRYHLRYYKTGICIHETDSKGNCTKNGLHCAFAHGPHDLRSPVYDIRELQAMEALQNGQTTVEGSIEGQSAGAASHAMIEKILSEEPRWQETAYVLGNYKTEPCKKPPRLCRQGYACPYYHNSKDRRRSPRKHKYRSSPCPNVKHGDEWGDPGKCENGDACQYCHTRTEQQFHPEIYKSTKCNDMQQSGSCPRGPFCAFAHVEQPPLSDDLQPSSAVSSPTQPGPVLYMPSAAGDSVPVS
Setting: RNA with constant flanks, human and mouse sites, ends assumed
All sequences stand within: GGGAGUUCUACAGUCCGACGAUC … CAACAGAGGAUUGAGCAUCA
Oligonucleotide = CAACAAUUAGAAGCACCUUAUAACAGUGAUACUGUGCUUGUCCACCGAGUUCACAGUUAUUUAGAGCGUCAUGGUCUUAUCAACUUCGGCAUCUAUAAGAGGAUAAAACCCCUACCAACU; value = 0.269 ratio
Oligonucleotide = ACCACCCACACCACCCUGGAGCACUCUGAUUGUGCCUUCAUGGUAGACAAUGAGGCCAUCUAUGACAUCUGUCGUAGAAACCUCGAUAUUGAGCGUCCAACCUAUACUAACCUGAAUAGG; value = 0.136 ratio
Oligonucleotide = GAUGUAACUUAAGUGACUGUGAUCCUUUGUCUACCUUUCAGGAUCCCAUCAAAUGGGAUUUAGUUGCUAGAAAGAUACUUGACAGUCUGAAGGCACAGGUGAUAAGAUUUUGUUCUCUGU; value = 0.194 ratio
Oligonucleotide = GUUAUUUUAAUAAUCCCUUUAAAUUUUAUCUGUUGCUGUUACCUCUUGAAAUAUGAUUUAUUUAGAUUGCUAAUCCCACUCAUUCAGGAAAUGCCAAGAGGUAUUCCUUGGGGAAAUGGU; value = 2.44 ratio
Oligonucleotide = AUCUAUUCCCCUCUUUUUAUUUCUGGGGCCGGUUUUUUCCUUUUUUUUUUAAUCCCUCCUUAGCUUUUUAUGCGCUCAUAAUCAAUUGUACCCAUUCCCUACAUAACGGGAGCAGUGAUC; value = 173 ratio
Oligonucleotide = GGCAGCAAAAGGCACAGUAGGUCAAGAAGCAGGUCUCGAUCCCGGACCAGAAGUUCCUCUAGGUCUCGUAGCCGAUCCCGUUCCCGUAGUCGCAAAUCUUACAGCCGGUCAAGAAGCAGG; value = 1.79 ratio
Oligonucleotide = CUGAAGCAGCCCCGAGAAUGCCGGACCACAGAGUCUGGGGUGCCAGAGGAUGGACAGUUGGAUGCCCAGGUGAGGGCUGCCGUGGAGAUGUACUCAGAGGACUGGGUCAUUGUACGCAGA; value = 0.165 ratio
Oligonucleotide = UCUUUUUCCUGGACUACAGACUGCAAUCCCCGUAGGGAGUGGCAUUGCUCACAUAGACAUUAGUAUUUUACUGAGGGUAUCAGCACCAUGGCCACUGAAGACCAGACAUAGGGUUGGGAA; value = 4.63 ratio
Oligonucleotide = AAUCUCAGAGGCAGUGGUGUCCAUGGUGGGCUCAUGGUUCUAGAGCCUCGUUUUAACGUAGAAACAAUGGCUCAGUUAUUGAACAUCCCACCCAAUAAGACUUUGCUGCGAAGACAUUUG; value = 0.0996 ratio
Oligonucleotide = AAGUACAUCCACAUCCUGGCUUACGCUGCCAGUGUGGUUGAGACCUGGAAGAAGAACAAGCGGGUCAGCAUUGGCAAAGACGAGCUCAAGUCCACGUCAAAGGCUAUCGAGACUGUCCAC; value = 0.0848 ratio
Oligonucleotide = CUUCCUCUGCCCCCCAUUGAGAUUCCAGCAGUUUUCUCGGGAAACACCUCUCCAAAAGUGGCAGUCGUUAAUCCUCAACCACAACAAUGGUCUAAAAUGUCAGUGAAGAAGGCCCCUCCA; value = 0.335 ratio

Excerpt of the above (set 4):
Oligonucleotide = GTCAGCTA; value = 0.0295
Oligonucleotide = CACTGTAG; value = 0.0138
Oligonucleotide = CTCGGCAC; value = 0.163
Oligonucleotide = CGGCCTAC; value = 0.119
Oligonucleotide = CTTTGACA; value = -0.0366
Oligonucleotide = GACTCTGA; value = -0.102
Oligonucleotide = CACATATG; value = -0.157
Oligonucleotide = GGCACACA; value = -0.056
Oligonucleotide = AATTCAAC; value = -0.00632
Oligonucleotide = AACATGAT; value = -0.0131
Oligonucleotide = ACCCTCAT; value = -0.216
